# Measurements of several laboratories.
# Lines come from different studies, so protocols differ.
SMILES,tested on,test,system,setting,measurement,result
Cc1ccc(COP(=O)(O)Oc2c3c(c(OP(=O)(O)OCc4ccc(C)cc4)c4c2C2CC4c4cc5c(cc42)C2CC5c4ccccc42)C2CC3c3cc4c(cc32)C2CC4c3ccccc32)cc1,Severe acute respiratory syndrome coronavirus 2,viral replication,Caco-2,,IC50,1.5 µM
Oc1ccc(/C=N/C23CC4CC(CC(C4)C2)C3)cc1,Severe acute respiratory syndrome coronavirus 2,"viral replication, qPCR",Calu-3,,IC50,0.0035 µM
C[C@]12C=CC(=O)C=C1CC[C@@H]1[C@@H]2[C@@H](O)C[C@@]2(C)[C@H]1C[C@H]1OC(c3ccc(Cl)cc3)O[C@]12C(=O)CO (some centres unmarked),Severe acute respiratory syndrome coronavirus 2,viral replication,VeroE6/TMPRSS2,,IC50,7.9 µM
CCN(CC)CCOC1CCC2(C)C(=CCC3C4CCC(=O)C4(C)CCC32)C1 (centres unmarked),Severe acute respiratory syndrome coronavirus 2,cytopathic effect,Vero C1008,72 h,IC50,~0.17 µM
Cc1ccc(N2CC(N3CCC(C)(O)CC3)C2)cc1C(=O)NC1(c2ccc3c4c(cccc24)CC3)CC1,Severe acute respiratory syndrome coronavirus 2,viral replication,Vero C1008,,IC50,0.208 µM
O=P(O)(OCc1ccc(-c2ccccc2)cc1)Oc1c2c(c(OP(=O)(O)OCc3ccc(-c4ccccc4)cc3)c3c1C1CC3c3cc4c(cc31)C1CC4c3ccccc31)C1CC2c2cc3c(cc21)C1CC3c2ccccc21,Severe acute respiratory syndrome coronavirus 2,viral replication,Caco-2,,IC50,0.2 µM
COc1cccc2c1C(=O)c1c(O)c3c(c(O)c1C2=O)C[C@@](O)(C(=O)CO)C[C@@H]3O[C@H]1C[C@H](N)[C@@H](O)[C@H](C)O1,Severe acute respiratory syndrome coronavirus 2,"viral replication, inhibitor",Calu-3,40 h,IC50,1.08 µM
O=C(O[C@@H]1[C@@H](O)[C@H](Oc2cc(O)c3c(c2)O[C@H](c2ccccc2)CC3=O)O[C@@H]2COC(=O)c3cc(O)c(O)c(O)c3-c3c(cc(O)c(O)c3O)C(=O)O[C@@H]12)c1cc(O)c(O)c(O)c1,Severe acute respiratory syndrome coronavirus 2,"viral replication, inhibitor",Vero C1008,24 h,IC50,4.9 µM
CC(C)CCOP(=O)(O)Oc1c2c(c(OP(=O)(O)OCCC(C)C)c3c1C1CC3c3cc4c(cc31)C1CC4c3ccccc31)C1CC2c2cc3c(cc21)C1CC3c2ccccc21,Severe acute respiratory syndrome coronavirus 2,viral replication,Caco-2,,IC50,8.2 µM
CCCCCCC1O[C@@H]2C[C@H]3[C@@H]4CCC5=CC(=O)C=C[C@]5(C)[C@H]4[C@@H](O)C[C@]3(C)[C@]2(C(=O)CO)O1 (some centres unmarked),Severe acute respiratory syndrome coronavirus 2,"viral replication, inhibitor",VeroE6/TMPRSS2,24 h,IC50,5.7 µM
CCCCCCCCCCCCCCCC(=O)N[C@@H](CCC(=O)NCCOCCOCCC(=O)NCCOCCOCCC(=O)NCCCC[C@H](NC(=O)[C@H](CC(=O)O)NC(=O)[C@H](CC(C)C)NC(=O)[C@H](Cc1ccc(O)cc1)NC(=O)[C@H](CCCCN)NC(=O)[C@H](CO)NC(=O)[C@H](Cc1ccc(O)cc1)NC(=O)[C@H](CC(=O)O)NC(=O)[C@H](CO)NC(=O)[C@@H](NC(=O)[C@H](Cc1ccccc1)NC(=O)[C@@H](NC(=O)CNC(=O)[C@H](CCC(N)=O)NC(=O)[C@@H](CO)NC(=O)[C@@H](N)Cc1c[nH]cn1)[C@@H](C)O)[C@@H](C)O)C(=O)N[C@@H](CCCNC(=N)N)C(=O)N[C@@H](CCCNC(=N)N)C(=O)N[C@@H](C)C(=O)N[C@@H](CCC(N)=O)C(=O)N[C@@H](CC(=O)O)C(=O)N[C@@H](Cc1ccccc1)C(=O)N[C@H](C(=O)N[C@@H](CCC(N)=O)C(=O)N[C@@H](Cc1c[nH]c2ccccc12)C(=O)N[C@@H](CC(C)C)C(=O)N[C@@H](CC(C)C)C(=O)N[C@@H](CC(N)=O)C(=O)N[C@H](C(=O)NCC(=O)NCC(=O)N1CCC[C@H]1C(=O)N[C@@H](CO)C(=O)N[C@@H](CO)C(=O)NCC(=O)N[C@@H](C)C(=O)N1CCC[C@H]1C(=O)N1CCC[C@H]1C(=O)N1CCC[C@H]1C(=O)N[C@@H](CO)C(N)=O)[C@@H](C)O)C(C)C)C(=O)O,,,"rhesus monkey, plasma","intravenous, 15.3 µg/kg, single dose",MRT,40.1 min
CCc1ccc(COP(=O)(O)Oc2c3c(c(OP(=O)(O)OCc4ccc(CC)cc4)c4c2C2CC4c4cc5c(cc42)C2CC5c4ccccc42)C2CC3c3cc4c(cc32)C2CC4c3ccccc32)cc1,Severe acute respiratory syndrome coronavirus 2,viral replication,Caco-2,,IC50,0.6 µM
O=C1c2c(O)ccc(O)c2C(=O)c2c(NCCNCCO)ccc(NCCNCCO)c21,Severe acute respiratory syndrome coronavirus 2,"viral replication, inhibitor",Calu-3,40 h,IC50,0.803 µM
CC(=O)NCCCCCCCCCC1O[C@@H]2C[C@H]3[C@@H]4CCC5=CC(=O)C=C[C@]5(C)[C@H]4[C@@H](O)C[C@]3(C)[C@]2(C(=O)CO)O1 (some centres unmarked),Severe acute respiratory syndrome coronavirus 2,viral replication,VeroE6/TMPRSS2,,IC50,5.7 µM
CC(=O)c1cccc(-c2nc(Nc3ccccc3)nc(N3CCOCC3)n2)c1,Severe acute respiratory syndrome coronavirus 2,viral replication,Vero,,IC50,2.2 µM
Cc1ccc(N2CC3CC(C2)N3C)cc1C(=O)NC1(c2ccc3c4c(cccc24)C(=O)N3C)CC1,Severe acute respiratory syndrome coronavirus 2,viral replication,Vero C1008,,IC50,0.107 µM
CCCCCCCCCCCCCCCC1O[C@@H]2C[C@H]3[C@@H]4CCC5=CC(=O)C=C[C@]5(C)[C@H]4[C@@H](O)C[C@]3(C)[C@]2(C(=O)CO)O1 (some centres unmarked),Severe acute respiratory syndrome coronavirus 2,"viral replication, inhibitor",VeroE6/TMPRSS2,24 h,IC50,20.8 µM
O=P(O)(OCc1cccc2ccccc12)Oc1c2c(c(OP(=O)(O)OCc3cccc4ccccc34)c3c1C1CC3c3cc4c(cc31)C1CC4c3ccccc31)C1CC2c2cc3c(cc21)C1CC3c2ccccc21,Severe acute respiratory syndrome coronavirus 2,viral replication,Caco-2,,IC50,0.3 µM
C[C@]12C=CC(=O)C=C1CC[C@@H]1[C@@H]2[C@@H](O)C[C@@]2(C)[C@H]1C[C@@H](O)[C@]2(O)C(=O)CO,Severe acute respiratory syndrome coronavirus 2,"viral replication, inhibitor",VeroE6/TMPRSS2,24 h,IC50,> 30 µM
O=P(O)(OCc1ccccc1)Oc1c2c(c(OP(=O)(O)OCc3ccccc3)c3c1C1CC3c3cc4c(cc31)C1CC4c3ccccc31)C1CC2c2cc3c(cc21)C1CC3c2ccccc21,Severe acute respiratory syndrome coronavirus 2,viral replication,Caco-2,,IC50,8.5 µM
CCCCCCCCCC1O[C@@H]2C[C@H]3[C@@H]4CCC5=CC(=O)C=C[C@]5(C)[C@H]4[C@@H](O)C[C@]3(C)[C@]2(C(=O)CO)O1 (some centres unmarked),Severe acute respiratory syndrome coronavirus 2,"viral replication, inhibitor",Calu-3,,IC50,8.9 µM
Cc1ccc(N2CC(N3CCC(C)(O)CC3)C2)cc1C(=O)NC1(c2ccc3c4c(cccc24)C(=O)N3C)CC1,Severe acute respiratory syndrome coronavirus 2,viral replication,Vero C1008,,IC50,0.0786 µM
CCCCCCCOP(=O)(O)Oc1c2c(c(OP(=O)(O)OCCCCCCC)c3c1C1CC3c3cc4c(cc31)C1CC4c3ccccc31)C1CC2c2cc3c(cc21)C1CC3c2ccccc21,Severe acute respiratory syndrome coronavirus 2,viral replication,Caco-2,,IC50,0.4 µM
CCCC/C=C/C(=O)N[C@@H](Cc1csc2ccccc12)C(=O)N[C@H]1COC(=O)[C@@H]2C[C@@H](C)CN2C(=O)[C@H](C)NC(=O)[C@@H]2CCCCN2C(=O)[C@@H]2CCCN2C1=O,Severe acute respiratory syndrome coronavirus 2,"viral replication, inhibitor, luciferase",,"24 h, replicon",IC50,11.4 µM
C[C@]12C=CC(=O)C=C1CC[C@@H]1[C@@H]2[C@@H](O)C[C@@]2(C)[C@H]1C[C@H]1OC(c3ccccc3Cl)O[C@]12C(=O)CO (some centres unmarked),Severe acute respiratory syndrome coronavirus 2,viral replication,VeroE6/TMPRSS2,,IC50,8.7 µM
C#CCCCOP(=O)(O)Oc1c2c(c(OP(=O)(O)OCCCC#C)c3c1C1CC3c3cc4c(cc31)C1CC4c3ccccc31)C1CC2c2cc3c(cc21)C1CC3c2ccccc21,Severe acute respiratory syndrome coronavirus 2,viral replication,Caco-2,,IC50,48.9 µM
